Published values gathered from unrelated publications.
± marks the error that the study gave.

| Compound | tested on | test | system | setting | scale | quantity | result |
| --- | --- | --- | --- | --- | --- | --- | --- |
| N#CCc1cccc(Cl)c1-c1ccc2[nH][11c](=O)[nH]c2c1 | P-glycoprotein and Bcrp | ex vivo brain uptake | mouse | injection, 5 min, together with: tariquidar and Ko143 | baseline: without inhibitors | brain-to-blood ratio increase | 202% |
| O=C([O-])CN1CCN(CC(=O)[O-])CCN(CC(=O)NCCc2ccc3c(c2)C2C=CCC2C(c2cc4c(cc2Br)OCO4)N3)CCN(CC(=O)[O-])CC1.[111In+3] (stereo not shown) | – | – | mouse, Hec50 endometrial tumour, muscle | 0.5 h post injection | – | tissue uptake | 0.69 ± 0.1 %ID/g |
| CCCC[C@@H]1NC(=O)[C@@H](NC(=O)[C@H](CCC(=O)O)NC(=O)CNC(=O)CN2CCN(CC(=O)O)CCN(CC(=O)O)CCN(CC(=O)O)CC2)CCCCNC(=O)C[C@@H](C(N)=O)NC(=O)[C@H](C(C)C)NC(=O)[C@@H]2CCCN2C(=O)[C@H](CCCNC(=N)N)NC(=O)CNC(=O)[C@H](Cc2c[nH]c3ccccc23)NC(=O)[C@H](CCCNC(=N)N)NC(=O)[C@@H](Cc2ccccc2)NC(=O)[C@H](Cc2c[nH]cn2)NC(=O)[C@H](CCC(=O)O)NC1=O [gallium-67 labelled] | – | – | C57 mice, B16/F1 flank melanoma, blood | intravenous, 2 h, together with: blocking peptide 10 µg | – | tissue uptake | 0.24 ± 0.02 %ID/g |
| CC(C)[C@H](NC(=O)[C@@H]1CCCN1C(=O)[C@H](CCCNC(=N)N)NC(=O)[C@H](CS)NC(=O)[C@H](Cc1c[nH]c2ccccc12)NC(=O)[C@H](CCCNC(=N)N)NC(=O)[C@@H](Cc1ccccc1)NC(=O)[C@H](Cc1c[nH]cn1)NC(=O)[C@H](CCC(=O)O)NC(=O)[C@H](CS)NC(=O)[C@H](CS)NC(=O)[C@@H]1CC(=O)N[C@@H](CCCNC(=N)N)C(=O)NCC(=O)N[C@@H](CC(=O)O)C(=O)N[C@H](Cc2ccc(O)cc2)C(=O)N1)C(N)=O [technetium-99m labelled] | – | – | C57 mouse, female, B16/F1 melanoma, skin | intravenous, 0.037 MBq, 2 h | – | tissue uptake | 1.25 ± 0.31 %ID/g |
| N=C(N)NCCC[C@@H]1NC(=O)[C@H](Cc2c[nH]c3ccccc23)NC(=O)[C@@H](CC2CCCCC2)NC(=O)[C@@H]2CCCN2C(=O)[C@@H](NC(=O)CCc2ccccc2)CCCNC1=O | – | – | C57BL/6J mice, plasma | intraperitoneal, 1 mg/kg, two-compartment model | – | elimination rate constant | 0.00114 s⁻¹ |
| NC12CNCCNCC(NCc3ccc(CNC(=O)CCCC(=O)NCc4ccc(-c5nncnn5)cc4)cc3)(CNCCNC1)CNCCNC2.[64Cu+2] | – | – | athymic nude mice, SW1222 xenograft, small intestine, with contents | 24 h p.i., huA33-TCO pretargeting, 24 h interval | – | tissue uptake | 0.45 ± 0.07 %ID/g |
| CN1C(=O)[C@@H](Cc2ccc(O)c(I)c2)NC(=O)CNC(=O)[C@H](Cc2ccc3ccccc3c2)NC(=O)[C@H](CCCNC(=N)N)NC(=O)[C@H]1CCCNC(=O)c1ccc(CNC(=O)CN2CCN(CC(=O)O)CCN(CC(=O)O)CCN(CC(=O)O)CC2)cc1 [lutetium-177 labelled] | – | measured: 177Lu radioactivity | female CB-17 SCID mice, Daudi xenograft, stomach | intravenous, 0.16 nmol per mouse, 1 h | – | tissue uptake | 1.2 ± 0.3 %ID/g |
| CCCC[C@H](NC(=O)CNC(=O)CNC(=O)CN1CCN(CC(=O)O)CCN(CC(=O)O)CC1)C(=O)N[C@H]1CC(=O)NCCCC[C@@H](C(N)=O)NC(=O)[C@H](Cc2c[nH]c3ccccc23)NC(=O)[C@H](CCCNC(=N)N)NC(=O)[C@@H](Cc2ccccc2)NC(=O)[C@H](Cc2c[nH]cn2)NC1=O [copper-64 labelled] | – | – | female C57 mouse, B16/F1 melanoma, pancreas | intravenous, 0.037 MBq, 2 h | – | tissue uptake | 0.29 ± 0.13 %ID/g |
| CN(C)c1ccc(-c2nc3ccc(OCCCCCN4CCN5CCN(CC4)CC(=O)[O][Al]([18F])[O]C(=O)C5)cc3s2)cc1 | – | – | ICR mouse, bone | intravenous, 60 min | – | tissue uptake | 1.44 ± 0.53 %ID/g |
| [64Cu+2].c1cnc(CNCc2ccc(CN3CCCN4CCNCCCN(CC4)CC3)cc2)nc1 | CXCR4 | – | NOD/SCID mouse, tumour | 90 min | baseline: U87-stb-CXCR4 over U87 | uptake ratio | 7.71 ± 3.36 |
| CCCC[C@H](NC(=O)CNC(=O)CNC(=O)CN1CCN(CC(=O)O)CCN(CC(=O)O)CC1)C(=O)N[C@H]1CC(=O)NCCCC[C@@H](C(N)=O)NC(=O)[C@H](Cc2c[nH]c3ccccc23)NC(=O)[C@H](CCCNC(=N)N)NC(=O)[C@@H](Cc2ccccc2)NC(=O)[C@H](Cc2c[nH]cn2)NC1=O [gallium-67 labelled] | – | – | female C57 mice, B16/F1 melanoma, kidneys | intravenous, 0.037 MBq, 4 h | – | tissue uptake | 7.58 ± 2.7 %ID/g |
| [64Cu+2].c1ccc(CNCc2ccc(CN3CCCN4CCNCCCN(CC4)CC3)cc2)nc1 | CXCR4 | – | NOD/SCID mouse, U87 and U87-stb-CXCR4 xenografts | iv, 90 min, no blocking dose | baseline: U87-stb-CXCR4 tumour over muscle | tumour-to-muscle ratio | 61.1 ± 16.9 |
| CCCC[C@H](NC(=O)CNC(=O)CNC(=O)CN1CCN(CC(=O)O)CCN(CC(=O)O)CCN(CC(=O)O)CC1)C(=O)N[C@H]1CC(=O)NCCCC[C@@H](C(N)=O)NC(=O)[C@H](Cc2c[nH]c3ccccc23)NC(=O)[C@H](CCCNC(=N)N)NC(=O)[C@@H](Cc2ccccc2)NC(=O)[C@H](Cc2c[nH]cn2)NC1=O [copper-64 labelled] | – | – | female C57 mouse, B16/F1 melanoma, bone | intravenous, 0.037 MBq, 4 h | – | tissue uptake | 1.95 ± 0.53 %ID/g |

Repeated from above:
| Compound | tested on | test | system | setting | scale | quantity | result |
| --- | --- | --- | --- | --- | --- | --- | --- |
| CCCC[C@H](NC(=O)CNC(=O)CNC(=O)CN1CCN(CC(=O)O)CCN(CC(=O)O)CCN(CC(=O)O)CC1)C(=O)N[C@H]1CC(=O)NCCCC[C@@H](C(N)=O)NC(=O)[C@H](Cc2c[nH]c3ccccc23)NC(=O)[C@H](CCCNC(=N)N)NC(=O)[C@@H](Cc2ccccc2)NC(=O)[C@H](Cc2c[nH]cn2)NC1=O [copper-64 labelled] | – | – | female C57 mouse, B16/F1 melanoma, bone | intravenous, 0.037 MBq, 4 h | – | tissue uptake | 1.95 ± 0.53 %ID/g |
| CN(C)c1ccc(-c2nc3ccc(OCCCCCN4CCN5CCN(CC4)CC(=O)[O][Al]([18F])[O]C(=O)C5)cc3s2)cc1 | – | – | ICR mouse, bone | intravenous, 60 min | – | tissue uptake | 1.44 ± 0.53 %ID/g |
